Published values pooled from the literature.
Parts stem from different laboratories: compare values within a part only. “And” joins repeats or separate records; there may be more than shown.
Sequence of UniProt Q2M2I8 (whole entry, looked up): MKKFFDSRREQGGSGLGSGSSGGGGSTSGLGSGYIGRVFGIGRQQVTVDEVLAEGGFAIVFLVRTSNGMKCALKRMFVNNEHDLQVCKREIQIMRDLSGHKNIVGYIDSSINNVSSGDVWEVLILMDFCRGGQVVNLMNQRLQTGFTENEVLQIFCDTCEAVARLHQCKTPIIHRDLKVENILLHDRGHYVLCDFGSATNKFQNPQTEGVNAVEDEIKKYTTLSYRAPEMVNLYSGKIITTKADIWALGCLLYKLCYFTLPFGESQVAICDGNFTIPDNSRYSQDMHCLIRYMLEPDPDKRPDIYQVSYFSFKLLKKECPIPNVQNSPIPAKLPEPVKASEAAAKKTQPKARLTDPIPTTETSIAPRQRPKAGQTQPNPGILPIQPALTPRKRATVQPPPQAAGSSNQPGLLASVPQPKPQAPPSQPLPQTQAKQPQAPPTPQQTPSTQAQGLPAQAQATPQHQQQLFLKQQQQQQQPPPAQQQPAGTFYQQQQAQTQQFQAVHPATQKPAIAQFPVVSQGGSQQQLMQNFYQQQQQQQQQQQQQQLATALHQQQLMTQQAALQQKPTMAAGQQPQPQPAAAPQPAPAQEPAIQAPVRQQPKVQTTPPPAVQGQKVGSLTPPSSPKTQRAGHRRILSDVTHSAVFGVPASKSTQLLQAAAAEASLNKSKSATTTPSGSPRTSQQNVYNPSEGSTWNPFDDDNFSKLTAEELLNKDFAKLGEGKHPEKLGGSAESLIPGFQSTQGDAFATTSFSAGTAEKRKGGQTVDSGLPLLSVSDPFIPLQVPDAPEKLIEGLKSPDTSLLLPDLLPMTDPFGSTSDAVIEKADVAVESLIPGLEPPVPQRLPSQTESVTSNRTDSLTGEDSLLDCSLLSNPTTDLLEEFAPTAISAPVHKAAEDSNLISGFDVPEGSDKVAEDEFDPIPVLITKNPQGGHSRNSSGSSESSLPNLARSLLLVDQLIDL

Block 1 — technique: PRP chromatography estimate; medium: 1,9-decadiene/PBS; pH: 7.4
| Structure (SMILES) | logD |
| --- | --- |
| CCOC(=O)[C@@H]1CSCC(=O)N[C@H](CC)C(=O)N(C)[C@@H](C)C(=O)N[C@H](CC(C)C)C(=O)N2CCC[C@@H]2C(=O)N(CC)CC(=O)N[C@@H](CC(C)C)C(=O)N(C)[C@H](C)C(=O)N[C@@H](CC(C)C)C(=O)N1C | -0.0699 |
| CC(C)C[C@@H]1NC(=O)[C@H](C)NC(=O)[C@@H](CC(C)C)NC(=O)[C@@H](CCC(=O)N2CCCC2)NC(=O)[C@H](CC(C)C)NC(=O)[C@@H](CC(C)C)NC(=O)[C@H](CC(C)C)NC1=O | 0.152 |
| CC(C)C[C@@H]1NC(=O)[C@H](C(C)C)NC(=O)[C@H](C)NC(=O)[C@@H](CC(C)C)NC(=O)[C@H](C(C)C)NC(=O)[C@H](CC(C)C)NC(=O)[C@@H](CC(C)C)NC1=O | 0.372 |
| CC(C)C[C@@H]1NC(=O)[C@H](CC(C)C)NC(=O)[C@H](CC(C)C)NC(=O)[C@H](C(C)C)NC(=O)[C@@H](Cc2cscn2)NC(=O)[C@H](CCC(=O)N2CCCC2)NC(=O)[C@H](C)NC1=O | -2.25 |
| CCC[C@H]1NC(=O)CSC[C@@H](C(=O)OCC)N(C)C(=O)[C@H](CC(C)C)NC(=O)[C@@H](C)N(C)C(=O)[C@H](CC(C)C)NC(=O)[C@H](C)N(C)C(=O)[C@H]2CCCN2C(=O)[C@@H](CC(C)C)NC(=O)CN(C)C1=O | -0.448 |
| CC(C)C[C@@H]1NC(=O)[C@H](CC(C)C)NC(=O)[C@@H](CC(C)C)NC(=O)[C@H](C(C)C)NC(=O)[C@H](C)NC(=O)[C@H](Cc2cscn2)NC(=O)[C@H](CCC(=O)N2CCCC2)NC1=O | -1.91 |
| CC(C)C[C@@H]1NC(=O)[C@H](Cc2cscn2)NC(=O)[C@H](CC(C)C)NC(=O)[C@H](C(C)C)NC(=O)[C@H](CC(C)C)NC(=O)[C@@H](CC(C)C)NC(=O)[C@H](CC(C)C)NC1=O | 1.1 |
| CC(C)C[C@@H]1NC(=O)[C@H](CC(C)C)NC(=O)[C@@H](CC(C)C)NC(=O)[C@H](CC(C)C)NC(=O)[C@@H](Cc2cscn2)NC(=O)[C@H](C)NC(=O)[C@H](CCC(=O)N2CCCC2)NC1=O | -1.43 |

Block 2 — species: mouse; medium: microsomes or S9; concentration: 2 µM; time: 0.5 h
| Structure (SMILES) | remaining compound |
| --- | --- |
| O=C(c1cc2cc(Br)c3ncccc3c2s1)N1CCN(c2ccccc2)CC1 | 78.5% |
| N#Cc1nc(-c2ccc(Br)o2)oc1N1CCC(C(=O)Nc2cnccc2O)CC1 | 73.3% |
| CCCOc1ccc(S(=O)(=O)n2nc(C)cc2C)cc1C | 0.0699% |
| COc1cc(/C=C/C(C)=O)ccc1O | 28.9% |
| CCN1CCCC1CN(Cc1cccnc1)Cc1cccc(Oc2ncccn2)c1 (centres unmarked) | 4.34% |

Block 3 — cell line: mouse MPNST tumor cells; technique: high-content immunofluorescence imaging; item: nuclear SOX9; concentration: 10 µM; time: 12 h; setting: mean of 2 replicates; relative to: DMSO control; reading: higher = more nuclear SOX9
| Structure (SMILES) | nuclear SOX9 intensity |
| --- | --- |
| CCCCCCCC/C=C\CCCCCCCC(=O)NCc1ccc(O)c(OC)c1 | 91.8 % of DMSO |
| CO/N=C1\CN(c2nc3c(cc2F)c(=O)c(C(=O)O)cn3C2CC2)CC1CN (centres unmarked) | 121 % of DMSO |
| O=C(Nc1ccccc1)N[C@@H]1C[C@@H](C(=O)O)Nc2cc(Cl)cc(Cl)c21 | 90.6 % of DMSO |
| COc1cc(NC(C)CCCN)c2ncccc2c1 (centres unmarked) | 133 % of DMSO |
| COC(c1ccccc1)(c1ccccc1)[C@H](Oc1nc(C)cc(C)n1)C(=O)O | 115 % of DMSO and 101 % of DMSO |

Further values, each from its own experiment
| Compound | tested on | assay | test system | setting | how to read | endpoint | result |
| --- | --- | --- | --- | --- | --- | --- | --- |
| CNC(=O)Nc1ccc2c(c1)C1(CC2)OC(=O)N(CC(=O)N(Cc2ccc(F)cc2)[C@@H](C)C(F)(F)F)C1=O (single isomer, unassigned) | AAK1 (Homo sapiens, UniProt Q2M2I8) | KINOMEscan | – | 1 µM | relative to: control | remaining binding | 100% |
| O=C(O)[C@H]1[C@H](Cn2nnc3ccccc3c2=O)CC[C@@H]1C(=O)c1ccc(OCCC2CCOCC2)cc1 | sample G normal colon organoids | CellTiter-Glo | human patient-derived organoids | 0.1 µM, 4 days | relative to: DMSO control | viability | 135% |
